Measurements gathered from unrelated publications.
Parts stem from different laboratories: compare values within a part only.

Sample 1 — technique: protein binding microarray; form: double-stranded DNA, one strand shown; sample: in vitro; tested at: not given; reference: not given; direction: higher = stronger binding
Target: Histone acetyltransferase KAT6A, both winged helices, GST fusion (KAT6A, Homo sapiens, UniProt Q92794, residues 1-181)
Setting: 8-mer, flanks averaged, mean of 2 arrays, mostly near background
Residues (chain): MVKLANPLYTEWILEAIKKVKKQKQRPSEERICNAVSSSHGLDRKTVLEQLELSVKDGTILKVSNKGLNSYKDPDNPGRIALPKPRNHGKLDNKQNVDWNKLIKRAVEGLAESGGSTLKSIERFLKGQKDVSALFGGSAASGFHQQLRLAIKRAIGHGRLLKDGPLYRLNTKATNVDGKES
Oligonucleotide | E-score
ACTCTTCG | -9.5e-05
ATGAGGCA | -0.214
AATCATCT | -0.0864
AGCGGTCC | 0.136

Sample 2 — technique: universal PBM; form: double-stranded DNA, one strand shown; sample: in vitro; tested at: not given; direction: higher = stronger binding
Target: Sal-like protein 4, full length isoform B (SALL4, Homo sapiens, UniProt Q9UJQ4-2, residues 1-616)
Setting: 8-mer, flanks averaged, mean of replicates
Residues (chain): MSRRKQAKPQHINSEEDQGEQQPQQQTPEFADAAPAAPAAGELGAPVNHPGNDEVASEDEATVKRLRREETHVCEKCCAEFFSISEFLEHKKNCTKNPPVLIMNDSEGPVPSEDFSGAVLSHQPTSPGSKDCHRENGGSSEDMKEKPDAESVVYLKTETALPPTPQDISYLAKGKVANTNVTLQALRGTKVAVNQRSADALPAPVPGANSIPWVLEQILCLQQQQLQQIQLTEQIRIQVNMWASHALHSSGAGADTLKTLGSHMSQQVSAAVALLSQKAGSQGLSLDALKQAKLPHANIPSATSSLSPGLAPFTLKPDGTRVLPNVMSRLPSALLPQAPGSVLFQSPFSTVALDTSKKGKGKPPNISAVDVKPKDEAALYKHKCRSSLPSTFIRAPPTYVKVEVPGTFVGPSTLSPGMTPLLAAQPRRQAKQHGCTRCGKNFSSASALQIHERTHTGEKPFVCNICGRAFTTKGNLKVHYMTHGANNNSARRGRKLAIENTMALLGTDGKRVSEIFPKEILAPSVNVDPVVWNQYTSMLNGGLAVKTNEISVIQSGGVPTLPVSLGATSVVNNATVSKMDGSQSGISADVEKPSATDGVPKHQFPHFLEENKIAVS
Oligonucleotide | E-score
CGCCAGAG | -0.218
ACCCTAGC | -0.17
AAAGAAGA | 0.165

Other studies, line by line — Sox: Sox, HMG box (Pigoraptor chileana)
T1: Sox, HMG box (Pigoraptor chileana); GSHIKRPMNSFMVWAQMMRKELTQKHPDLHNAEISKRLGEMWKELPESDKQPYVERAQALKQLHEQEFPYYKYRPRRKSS
Substance | target | test | test system | conditions | how to read | measurement | value
GAGTCGTCTCGTCAGCACTGGTGTTCCGTAGAGCACTCAGGTC | T1, Sox, HMG box (Pigoraptor chileana) | Spec-seq | double-stranded DNA, one strand shown, in vitro | not given, whole probe, mean of replicates | reference: not given, lower = stronger binding | relative binding energy | 0.23 ln ratio
PhoQ, residues 284 288 289 292 302 303 SNSSNI | PhoP, residues 12 14 15 18 19 SPWRL (Escherichia coli, UniProt P23836) | Sort-seq, item: YFP reporter | E. coli | PhoQ-PhoP variant library, added: 10 µM Mg2+ | reference: high Mg2+ state, higher = stronger signaling | fold induction | 1.32
GAGTCGTCTCGTCAGCACCATCGCGCCGTAGAGCACTCAGGTC | T1, Sox, HMG box (Pigoraptor chileana) | Spec-seq | double-stranded DNA, one strand shown, in vitro | not given, whole probe, mean of replicates | reference: not given, lower = stronger binding | relative binding energy | 0.919 ln ratio
GAGTCGTCTCGTCAGCACCCCGGTTCCGTAGAGCACTCAGGTC | T1, Sox, HMG box (Pigoraptor chileana) | Spec-seq | double-stranded DNA, one strand shown, in vitro | not given, whole probe, mean of replicates | reference: not given, lower = stronger binding | relative binding energy | 0.847 ln ratio

A few entries again (sample 1):
Oligonucleotide | E-score
ATGAGGCA | -0.214
